Experimental data pooled from the literature.
Lines come from different studies, so protocols differ.

CC1(C)SC2C(NC(=O)C(NC(=O)C3=C(O)C(Cc4ccc(O)cc4)NC3=O)c3ccccc3)C(=O)N2C1C(=O)O (centres unmarked) — MIC (Escherichia coli; broth microdilution; ATCC 25922 wild type; added: clavulanic acid 6 µg/mL): 12.5 µg/mL
CNC(C)C1CCC(N)C(OC2C(N)CC(N)C(OC3OCC(C)(O)C(NC)C3O)C2O)O1 (centres unmarked) — MIC (Pseudomonas aeruginosa; broth microdilution; clinical isolate RKI-No 485/15-1): > 8 µg/mL
CC1(C)SC2C(NC(=O)C(NC(=O)C3=C(O)C(Cc4ccsc4)NC3=O)c3ccccc3)C(=O)N2C1C(=O)O (centres unmarked) — MIC (Escherichia coli; broth microdilution; ATCC 25922 wild type; added: clavulanic acid 6 µg/mL): 6.25 µg/mL
Clc1ccc(Nc2cc3nc4ccccc4n(-c4ccc(Cl)cc4)c-3c/c2=N\OCc2ccccc2)cc1 — MIC (Mycobacteroides abscessus; bacterial growth; ATCC 19977): > 30 µM
OC(Cn1cncn1)(Cn1cncn1)c1ccc(F)cc1F — MIC (Candida parapsilosis; CP1): 1 µg/mL
CN[C@H](CC(C)C)C(=O)N[C@H]1C(=O)N[C@@H](CC(N)=O)C(=O)N[C@H]2C(=O)N[C@H]3C(=O)N[C@H](C(=O)N[C@H](C(=O)O)c4cc(O)cc(O)c4-c4cc3ccc4O)[C@H](O)c3ccc(c(Cl)c3)Oc3cc2cc(c3O[C@@H]2O[C@H](CO)[C@@H](O)[C@H](O)[C@H]2O[C@H]2C[C@](C)(N)[C@H](O)[C@H](C)O2)Oc2ccc(cc2Cl)[C@H]1O — MIC (Bacillus cereus; ATCC 13061): 0.7 µg/mL
Cc1c(CN(C)C(=O)/C=C/c2cnc3c(c2)CCC(=O)N3)oc2ccccc12 — MIC (Escherichia coli; broth microdilution; AR-0085): > 32 µg/mL
CC(C)/N=c1\cc2n(-c3ccc(Cl)cc3)c3ccccc3nc-2cc1Nc1ccc(Cl)cc1 — MIC (Mycobacteroides abscessus; bacterial growth; ATCC 19977): 3.75 µM
CC(=O)NC[C@H]1CN(c2ccc(N3CCOCC3)c(F)c2)C(=O)O1 — MIC (Staphylococcus epidermidis; MRSE-8, methicillin-resistant): 1 µg/mL
CN[C@H](CC(C)C)C(=O)N[C@H]1C(=O)N[C@@H](CC(N)=O)C(=O)N[C@H]2C(=O)N[C@H]3C(=O)N[C@H](C(=O)N[C@H](C(=O)O)c4cc(O)cc(O)c4-c4cc3ccc4O)[C@H](O)c3ccc(c(Cl)c3)Oc3cc2cc(c3O[C@@H]2O[C@H](CO)[C@@H](O)[C@H](O)[C@H]2O[C@H]2C[C@](C)(N)[C@H](O)[C@H](C)O2)Oc2ccc(cc2Cl)[C@H]1O — MIC (Virgibacillus massiliensis; broth microdilution; DSM 28587): 0.17 µM
O=C(CO/N=c1\cc2n(-c3ccc(Cl)cc3)c3ccccc3nc-2cc1Nc1ccc(Cl)cc1)NCc1ccc(C(F)(F)F)cc1 — MIC (Mycobacteroides abscessus; bacterial growth; clinical isolate): > 30 µM
N=C(N)c1ccc(OCc2ccc(Br)cc2COc2ccc(C(=N)N)cc2)cc1 — MIC (Escherichia coli; mcr-3 polymyxin-resistant; compound alone): > 200 µg/mL
O/N=c1\cc2n(-c3ccc(Cl)cc3)c3ccccc3nc-2cc1Nc1ccc(Cl)cc1 — MIC (Mycobacteroides abscessus; bacterial growth; ATCC 19977): > 30 µM
CC(=O)N1CCN(c2ccc(OCC3COC(Cn4ccnc4)(c4ccc(Cl)cc4Cl)O3)cc2)CC1 (centres unmarked) — MIC (Candida parapsilosis; broth dilution; ATCC 22099; 48 h, 37 °C): 8 µg/mL
CCCCCCCCCC(=O)N[C@@H](Cc1c[nH]c2ccccc12)C(=O)N[C@H](CC(N)=O)C(=O)N[C@@H](CC(=O)O)C(=O)N[C@@H]1C(=O)NCC(=O)N[C@@H](CCCN)C(=O)N[C@@H](CC(=O)O)C(=O)N[C@H](C)C(=O)N[C@@H](CC(=O)O)C(=O)NCC(=O)N[C@H](CO)C(=O)N[C@@H]([C@H](C)CC(=O)O)C(=O)N[C@@H](CC(=O)c2ccccc2N)C(=O)O[C@@H]1C — MIC (Enterococcus; broth microdilution; VRE 155, Mueller-Hinton broth, Mg2+ 10 mg/L; 16 h, added: Ca2+ 10 mM): 0.125 µg/mL
CC1CCC(C(C)C)C(OC2=C(Cl)C(=O)c3ccccc3C2=O)C1 (centres unmarked) — MIC (Bacillus cereus; broth microdilution; MTCC 430): 12 µg/mL
N=C(N)c1ccc(OCCC(CCOc2ccc(C(=N)N)cc2)c2ccccc2)cc1 (centres unmarked) — MIC (Escherichia coli; BW25113; in combination, lowest-FICI combination, added: vancomycin): 200 µg/mL
COc1cccc(CNc2ccc(C(=O)O)cc2)c1 — MIC (Enterococcus): 256 µg/mL
C#CCOC(=O)ON=C1C=CC(=C(C#N)c2ccccc2)C=C1 — MIC (Candida parapsilosis; broth dilution; ATCC 22099; 48 h, 37 °C): 16 µg/mL
C=CCO/N=c1\cc2n(-c3ccc(Cl)cc3)c3ccccc3nc-2cc1Nc1ccc(Cl)cc1 — MIC (Mycobacteroides abscessus; bacterial growth; clinical isolate): > 30 µM
Cc1ccc(C(C)C)c(OC2=C(Cl)C(=O)c3ccccc3C2=O)c1 — MIC (Bacillus cereus; broth microdilution; MTCC 430): 10 µg/mL
COc1ccccc1CNc1ccc(C(=O)O)cc1 — MIC (Enterococcus): 128 µg/mL
N=C(N)c1cccc(OCc2ccc(COc3cccc(C(=N)N)c3)cc2)c1 — MIC (Escherichia coli; BW25113; compound alone, vancomycin checkerboard): > 200 µg/mL

Some of these lines once more:
OC(Cn1cncn1)(Cn1cncn1)c1ccc(F)cc1F — MIC (Candida parapsilosis; CP1): 1 µg/mL
COc1ccccc1CNc1ccc(C(=O)O)cc1 — MIC (Enterococcus): 128 µg/mL
